Results of several laboratories.
Each numbered part is a random draw from the data of one study; scales do not carry over between parts. Values joined by “and” are separate records of one study, mostly repeats; a detail may differ. Positions count from the first letter of the parent shown.
Chain of UniProt P20794 (whole entry, looked up): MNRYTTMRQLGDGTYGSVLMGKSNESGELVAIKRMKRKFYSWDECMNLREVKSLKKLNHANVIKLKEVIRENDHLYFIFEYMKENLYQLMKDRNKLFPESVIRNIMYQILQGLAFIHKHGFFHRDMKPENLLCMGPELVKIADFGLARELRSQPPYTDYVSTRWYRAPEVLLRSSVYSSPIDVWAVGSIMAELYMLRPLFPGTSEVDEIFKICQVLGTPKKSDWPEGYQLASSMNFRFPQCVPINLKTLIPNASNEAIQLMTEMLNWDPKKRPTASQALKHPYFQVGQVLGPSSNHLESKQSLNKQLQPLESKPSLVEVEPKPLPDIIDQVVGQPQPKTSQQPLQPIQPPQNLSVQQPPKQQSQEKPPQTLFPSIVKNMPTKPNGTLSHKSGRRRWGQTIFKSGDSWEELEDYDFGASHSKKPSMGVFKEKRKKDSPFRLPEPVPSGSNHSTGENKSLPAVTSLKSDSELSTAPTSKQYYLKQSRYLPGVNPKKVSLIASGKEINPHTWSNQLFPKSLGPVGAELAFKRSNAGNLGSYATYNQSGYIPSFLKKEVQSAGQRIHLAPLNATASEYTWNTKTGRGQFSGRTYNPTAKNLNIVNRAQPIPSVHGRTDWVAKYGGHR
Chain of UniProt Q9HBY8 (whole entry, looked up): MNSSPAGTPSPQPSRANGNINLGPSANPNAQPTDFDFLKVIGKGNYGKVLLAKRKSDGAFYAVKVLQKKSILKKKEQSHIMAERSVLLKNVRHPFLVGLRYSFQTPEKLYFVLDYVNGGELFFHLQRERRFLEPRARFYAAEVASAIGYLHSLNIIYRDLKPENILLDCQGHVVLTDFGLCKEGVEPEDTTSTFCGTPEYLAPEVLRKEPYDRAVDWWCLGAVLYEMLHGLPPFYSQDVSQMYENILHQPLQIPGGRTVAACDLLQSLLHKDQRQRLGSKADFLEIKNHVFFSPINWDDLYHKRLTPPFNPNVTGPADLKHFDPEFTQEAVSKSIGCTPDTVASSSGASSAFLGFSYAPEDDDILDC
Chain of UniProt P27361 (whole entry, looked up): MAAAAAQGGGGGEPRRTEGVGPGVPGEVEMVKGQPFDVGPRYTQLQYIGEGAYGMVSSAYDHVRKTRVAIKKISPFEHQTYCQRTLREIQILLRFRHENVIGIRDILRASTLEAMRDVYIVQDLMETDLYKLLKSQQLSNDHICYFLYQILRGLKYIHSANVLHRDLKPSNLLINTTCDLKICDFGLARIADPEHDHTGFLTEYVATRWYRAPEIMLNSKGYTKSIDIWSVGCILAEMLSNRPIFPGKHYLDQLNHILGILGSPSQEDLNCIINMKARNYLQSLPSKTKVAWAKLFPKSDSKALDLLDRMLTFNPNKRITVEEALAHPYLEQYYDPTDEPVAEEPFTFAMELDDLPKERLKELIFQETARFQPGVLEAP
Chain of UniProt P23458 (whole entry, looked up): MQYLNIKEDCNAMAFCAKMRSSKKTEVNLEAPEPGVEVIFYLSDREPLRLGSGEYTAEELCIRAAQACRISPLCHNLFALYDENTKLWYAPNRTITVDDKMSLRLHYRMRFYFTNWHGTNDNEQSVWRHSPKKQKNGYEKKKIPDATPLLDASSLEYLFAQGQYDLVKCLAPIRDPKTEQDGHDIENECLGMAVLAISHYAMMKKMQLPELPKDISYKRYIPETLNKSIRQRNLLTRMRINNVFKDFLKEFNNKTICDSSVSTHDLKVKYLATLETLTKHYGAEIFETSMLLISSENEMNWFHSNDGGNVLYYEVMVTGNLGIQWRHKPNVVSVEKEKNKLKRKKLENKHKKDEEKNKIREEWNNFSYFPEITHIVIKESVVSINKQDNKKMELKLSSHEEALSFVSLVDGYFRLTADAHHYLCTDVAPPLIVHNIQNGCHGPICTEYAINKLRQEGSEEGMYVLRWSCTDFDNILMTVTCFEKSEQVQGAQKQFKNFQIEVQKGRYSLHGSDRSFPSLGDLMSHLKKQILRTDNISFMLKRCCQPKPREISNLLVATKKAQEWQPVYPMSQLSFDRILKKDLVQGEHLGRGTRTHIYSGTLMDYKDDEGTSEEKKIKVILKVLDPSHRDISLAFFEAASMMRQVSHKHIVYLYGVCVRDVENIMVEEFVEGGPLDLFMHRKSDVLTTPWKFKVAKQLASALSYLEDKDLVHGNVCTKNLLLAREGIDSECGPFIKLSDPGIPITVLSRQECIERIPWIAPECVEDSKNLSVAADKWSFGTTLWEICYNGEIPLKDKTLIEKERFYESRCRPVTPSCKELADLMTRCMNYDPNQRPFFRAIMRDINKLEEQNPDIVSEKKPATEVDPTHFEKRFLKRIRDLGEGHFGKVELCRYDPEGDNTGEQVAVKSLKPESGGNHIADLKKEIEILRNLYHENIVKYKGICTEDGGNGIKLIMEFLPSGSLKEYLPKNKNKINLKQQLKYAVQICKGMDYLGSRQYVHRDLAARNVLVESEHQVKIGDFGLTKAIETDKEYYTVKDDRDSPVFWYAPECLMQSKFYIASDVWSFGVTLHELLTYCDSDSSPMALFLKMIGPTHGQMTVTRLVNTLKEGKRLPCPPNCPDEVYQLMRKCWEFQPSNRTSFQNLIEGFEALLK
Chain of UniProt Q12866 (whole entry, looked up): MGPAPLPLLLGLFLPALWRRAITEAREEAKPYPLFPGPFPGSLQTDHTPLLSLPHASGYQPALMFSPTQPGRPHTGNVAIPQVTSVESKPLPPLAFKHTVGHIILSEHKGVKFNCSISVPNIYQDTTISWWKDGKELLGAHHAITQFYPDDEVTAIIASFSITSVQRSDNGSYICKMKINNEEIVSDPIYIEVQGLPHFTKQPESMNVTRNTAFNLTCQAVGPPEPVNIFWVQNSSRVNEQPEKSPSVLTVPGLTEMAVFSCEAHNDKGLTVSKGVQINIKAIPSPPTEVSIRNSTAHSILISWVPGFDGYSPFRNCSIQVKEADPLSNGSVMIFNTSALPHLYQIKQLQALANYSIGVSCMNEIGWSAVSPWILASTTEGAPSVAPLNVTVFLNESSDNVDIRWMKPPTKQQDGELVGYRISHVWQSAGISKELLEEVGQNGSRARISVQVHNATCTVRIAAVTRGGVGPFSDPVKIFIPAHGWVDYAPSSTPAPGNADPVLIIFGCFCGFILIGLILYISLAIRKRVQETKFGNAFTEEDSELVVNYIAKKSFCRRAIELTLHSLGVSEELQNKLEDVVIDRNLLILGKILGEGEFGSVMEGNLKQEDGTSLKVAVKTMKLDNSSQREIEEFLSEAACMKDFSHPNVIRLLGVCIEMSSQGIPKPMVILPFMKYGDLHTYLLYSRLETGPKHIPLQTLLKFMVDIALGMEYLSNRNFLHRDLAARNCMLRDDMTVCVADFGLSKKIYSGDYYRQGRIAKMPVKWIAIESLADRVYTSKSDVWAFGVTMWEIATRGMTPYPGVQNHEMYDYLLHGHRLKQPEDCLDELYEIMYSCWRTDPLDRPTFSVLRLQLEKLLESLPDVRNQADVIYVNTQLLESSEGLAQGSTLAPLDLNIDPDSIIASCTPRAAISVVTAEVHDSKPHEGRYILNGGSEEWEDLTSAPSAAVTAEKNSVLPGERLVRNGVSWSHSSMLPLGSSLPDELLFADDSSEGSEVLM
Chain of UniProt Q92918 (whole entry, looked up): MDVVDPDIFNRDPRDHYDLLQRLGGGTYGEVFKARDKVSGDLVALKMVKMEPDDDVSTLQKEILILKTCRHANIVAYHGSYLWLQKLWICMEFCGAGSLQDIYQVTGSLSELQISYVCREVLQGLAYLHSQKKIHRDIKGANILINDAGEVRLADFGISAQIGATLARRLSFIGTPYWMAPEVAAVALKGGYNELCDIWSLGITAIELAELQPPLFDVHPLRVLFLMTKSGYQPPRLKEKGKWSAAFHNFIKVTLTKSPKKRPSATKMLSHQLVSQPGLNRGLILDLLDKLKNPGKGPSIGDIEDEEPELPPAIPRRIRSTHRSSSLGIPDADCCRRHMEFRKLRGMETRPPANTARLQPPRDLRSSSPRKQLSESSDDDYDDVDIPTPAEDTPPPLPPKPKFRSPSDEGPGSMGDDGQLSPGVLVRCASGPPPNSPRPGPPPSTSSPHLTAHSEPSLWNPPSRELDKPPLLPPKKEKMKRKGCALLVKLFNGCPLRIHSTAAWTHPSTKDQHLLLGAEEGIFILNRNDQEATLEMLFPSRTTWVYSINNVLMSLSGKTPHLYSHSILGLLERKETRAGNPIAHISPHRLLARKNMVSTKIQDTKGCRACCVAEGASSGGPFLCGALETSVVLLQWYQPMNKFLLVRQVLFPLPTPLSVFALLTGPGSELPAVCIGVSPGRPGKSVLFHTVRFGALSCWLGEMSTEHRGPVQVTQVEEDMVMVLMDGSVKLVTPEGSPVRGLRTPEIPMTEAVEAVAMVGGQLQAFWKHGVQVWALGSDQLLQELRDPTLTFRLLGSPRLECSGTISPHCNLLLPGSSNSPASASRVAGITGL
Chain of UniProt P49759 (whole entry, looked up): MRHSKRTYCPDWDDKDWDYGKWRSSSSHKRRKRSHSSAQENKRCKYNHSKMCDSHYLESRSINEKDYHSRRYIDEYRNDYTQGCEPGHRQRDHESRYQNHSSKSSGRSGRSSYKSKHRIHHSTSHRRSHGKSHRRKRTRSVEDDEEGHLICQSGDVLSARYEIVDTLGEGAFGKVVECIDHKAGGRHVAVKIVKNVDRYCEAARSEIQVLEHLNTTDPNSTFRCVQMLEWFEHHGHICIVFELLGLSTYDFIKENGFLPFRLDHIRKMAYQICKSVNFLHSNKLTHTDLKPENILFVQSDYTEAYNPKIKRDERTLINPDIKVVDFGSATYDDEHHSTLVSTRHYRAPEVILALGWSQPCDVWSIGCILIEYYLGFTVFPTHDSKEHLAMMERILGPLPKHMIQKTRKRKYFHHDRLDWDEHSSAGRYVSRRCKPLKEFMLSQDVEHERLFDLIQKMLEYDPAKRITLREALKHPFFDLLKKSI

Sample 1 — target: CCNB3, cyclin fold, Cln2 fusion (human); method: yeast growth competition, sequencing; matrix: yeast; notes: weak parent motif; reference: not given; reading: higher = stronger binding
Parent: CDKN1B docking peptide (human); PSACRNLFGPVDH; partner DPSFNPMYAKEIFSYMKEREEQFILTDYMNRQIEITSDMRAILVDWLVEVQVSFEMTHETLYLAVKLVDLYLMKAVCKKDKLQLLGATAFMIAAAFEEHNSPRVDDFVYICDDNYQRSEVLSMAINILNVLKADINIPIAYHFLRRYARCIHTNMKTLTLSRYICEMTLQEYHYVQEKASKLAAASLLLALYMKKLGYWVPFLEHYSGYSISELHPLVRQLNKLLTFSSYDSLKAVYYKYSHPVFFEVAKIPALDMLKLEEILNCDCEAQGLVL
Substitution | normalised enrichment score
PSFCRNLFGPVDH [A3F] | 0.535
PSACRNLFLPVDH [G9L] | 0.393
PSACRNLFGPVDM [H13M] | 0.326
FSACRNLFGPVDH [P1F] | 0.593
PSACRNLFYPVDH [G9Y] | 0.31
PSACRNLFNPVDH [G9N] | 0.264
PSACLNLFGPVDH [R5L] | 0.329
PSAPRNLFGPVDH [C4P] | 0.302

Sample 2 — method: competition with immobilised ligand; concentration: 1 µM
SMILES: CN1CCN(c2cnc3c(C4CCN(C(=O)c5ccc(OC(F)(F)F)cc5N)CC4)ncnc3c2)CC1
target | effect on | remaining binding
Serine/threonine-protein kinase MAK (MAK, Homo sapiens, UniProt P20794) | binding | 100%
Cyclin-dependent kinase 9 (CDK9, Homo sapiens, UniProt P50750) | cell-free assay | 100%
Tyrosine-protein kinase Fes/Fps (FES, Homo sapiens, UniProt P07332) | cell-free assay | 100%
Mitogen-activated protein kinase 3 (MAPK3, Homo sapiens, UniProt P27361) | cell-free assay | 100%
cAMP-dependent protein kinase catalytic subunit beta (PRKACB, Homo sapiens, UniProt P22694) | cell-free assay | 91%
Tyrosine-protein kinase Mer (MERTK, Homo sapiens, UniProt Q12866) | cell-free assay | 75%
Bone morphogenetic protein receptor type-1A (BMPR1A, Homo sapiens, UniProt P36894) | binding | 79%
Macrophage colony-stimulating factor 1 receptor (CSF1R, Homo sapiens, UniProt P07333) | cell-free assay | 100%
Serine/threonine-protein kinase Chk1 (CHEK1, Homo sapiens, UniProt O14757) | cell-free assay | 100%
Mitogen-activated protein kinase kinase kinase 5 (MAP3K5, Homo sapiens, UniProt Q99683) | cell-free assay | 92%
Death-associated protein kinase 1 (DAPK1, Homo sapiens, UniProt P53355) | cell-free assay | 100%
Ephrin type-B receptor 6 (EPHB6, Homo sapiens, UniProt O15197) | cell-free assay | 18%
Mitogen-activated protein kinase kinase kinase kinase 1 (MAP4K1, Homo sapiens, UniProt Q92918) | cell-free assay | 88%
Tyrosine-protein kinase SYK (SYK, Homo sapiens, UniProt P43405) | cell-free assay | 100%
Receptor-type tyrosine-protein kinase FLT3 (FLT3, Homo sapiens, UniProt P36888, N841I) | cell-free assay | 100%
Ribosomal protein S6 kinase alpha-5, C-terminal kinase domain (RPS6KA5, Homo sapiens, UniProt O75582) | cell-free assay | 96%
Mitogen-activated protein kinase 4 (MAPK4, Homo sapiens, UniProt P31152) | cell-free assay | 100%

Sample 3 — effect on: enzyme activity; action: inhibitor; concentration: 0.5 µM; reference: control
Compound: CN([C@@H](Cc1ccc(OS(=O)(=O)c2cccc3cnccc23)cc1)C(=O)N1CCN(c2ccccc2)CC1)S(=O)(=O)c1cccc2cnccc12
target | remaining activity
Dual specificity protein kinase CLK1 (CLK1, Homo sapiens, UniProt P49759) | 97.3%
Serine/threonine-protein kinase SIK2 (SIK2, Homo sapiens, UniProt Q9H0K1) | 108%
Cyclin-dependent kinase 2, with cyclin E (CDK2, Homo sapiens, UniProt P24941) | 94.9%
Dual specificity protein kinase CLK2 (CLK2, Homo sapiens, UniProt P49760) | 93%
Serine/threonine-protein kinase Sgk2 (SGK2, Homo sapiens, UniProt Q9HBY8) | 100%
Tyrosine-protein kinase JAK1 (JAK1, Homo sapiens, UniProt P23458) | 108%

Mixed results
Substance | tested on | assay | test system | setting | how to read | measurement | result
DDX1 (Homo sapiens, UniProt Q92499) | RTCB (Homo sapiens, UniProt Q9Y3I0) | cross-linking MS | – | hits only | – | interaction screen | cross-linked
COCc1cc(C(=O)Nc2cc([C@H]3CC[C@@H](OC(=O)NC(C)C)C3)[nH]n2)n(C)n1 | NCI-H1048 | Vi-Cell | – | 62.5 nM, 6 d | reference: DMSO | cell count | 0.777 and 0.78 and 0.857
RANBP10 (Homo sapiens, UniProt Q6VN20) | GID8 (Homo sapiens, UniProt Q9NWU2) | cross-linking MS | cell fractions | added: DSSO | – | cross-linked residues | K293 to K48
CC(C)(C)c1cnc(CSc2cnc(NC(=O)C3CCN(CCCCSc4cccc5c4C(=O)N(C4CCC(=O)NC4=O)C5=O)CC3)s2)o1 (centres unmarked) | HH | CCK-8 | – | 10 nM | – | viability | 100%
HSPA4 (Homo sapiens, UniProt P34932) | ADAMTS1 (Homo sapiens, UniProt Q9UHI8) | cross-linking MS | cell fractions | added: DHSO | – | cross-linked residues | E308 to E585
CCC[C@@H]1NC(=O)CSC[C@@H](C(=O)OCC)N(C)C(=O)[C@H](CC(C)C)NC(=O)[C@H](C)N(C)C(=O)[C@H](CC(C)C)NC(=O)[C@H](C)N(C)C(=O)[C@@H]2CCCN2C(=O)[C@@H](CC(C)C)NC(=O)CN(C)C1=O | – | – | hydrocarbon/water | – | – | logD | -0.302
XRCC6 (Homo sapiens, UniProt P12956) | XRCC5 (Homo sapiens, UniProt P13010) | cross-linking MS | cell fractions | added: DHSO | – | cross-linked residues | E450 to E371

Excerpt of the above (sample 2):
target | effect on | remaining binding
Mitogen-activated protein kinase kinase kinase 5 (MAP3K5, Homo sapiens, UniProt Q99683) | cell-free assay | 92%
Death-associated protein kinase 1 (DAPK1, Homo sapiens, UniProt P53355) | cell-free assay | 100%
Ephrin type-B receptor 6 (EPHB6, Homo sapiens, UniProt O15197) | cell-free assay | 18%
Mitogen-activated protein kinase kinase kinase kinase 1 (MAP4K1, Homo sapiens, UniProt Q92918) | cell-free assay | 88%
